Results pooled from the literature.
Every numbered part comes from another study and shows a few of its results, in no order. Changes are numbered by the printed parent chain.
Chain of UniProt Q8RYC8 (whole entry, looked up): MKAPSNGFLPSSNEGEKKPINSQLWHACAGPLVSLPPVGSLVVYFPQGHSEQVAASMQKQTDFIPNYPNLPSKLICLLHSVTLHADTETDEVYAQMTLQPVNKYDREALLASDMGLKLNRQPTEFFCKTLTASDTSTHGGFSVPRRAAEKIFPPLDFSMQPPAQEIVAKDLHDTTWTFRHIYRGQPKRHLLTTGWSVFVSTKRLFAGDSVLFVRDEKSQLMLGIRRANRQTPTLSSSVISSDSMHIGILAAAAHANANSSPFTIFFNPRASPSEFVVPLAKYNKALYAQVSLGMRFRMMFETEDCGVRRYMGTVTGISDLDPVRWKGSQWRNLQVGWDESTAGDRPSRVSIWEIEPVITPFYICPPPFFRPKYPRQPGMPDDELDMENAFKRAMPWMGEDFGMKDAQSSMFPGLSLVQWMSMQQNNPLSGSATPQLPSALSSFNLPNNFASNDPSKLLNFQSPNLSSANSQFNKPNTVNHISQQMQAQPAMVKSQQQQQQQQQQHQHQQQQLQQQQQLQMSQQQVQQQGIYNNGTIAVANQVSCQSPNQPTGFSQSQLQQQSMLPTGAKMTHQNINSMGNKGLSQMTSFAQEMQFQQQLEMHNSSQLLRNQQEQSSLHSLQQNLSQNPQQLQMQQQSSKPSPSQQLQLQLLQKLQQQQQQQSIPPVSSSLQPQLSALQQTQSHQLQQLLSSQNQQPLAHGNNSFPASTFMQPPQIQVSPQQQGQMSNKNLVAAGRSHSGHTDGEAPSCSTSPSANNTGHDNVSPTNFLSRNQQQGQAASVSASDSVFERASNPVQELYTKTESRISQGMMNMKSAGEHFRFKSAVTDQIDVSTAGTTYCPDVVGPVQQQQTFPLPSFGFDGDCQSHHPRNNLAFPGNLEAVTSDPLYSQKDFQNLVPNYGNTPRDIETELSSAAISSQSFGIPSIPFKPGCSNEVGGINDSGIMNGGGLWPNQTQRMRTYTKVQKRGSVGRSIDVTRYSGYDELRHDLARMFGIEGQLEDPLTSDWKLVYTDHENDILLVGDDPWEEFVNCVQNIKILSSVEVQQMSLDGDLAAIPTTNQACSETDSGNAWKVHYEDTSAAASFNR

Sample 1
Target: CCNE2, cyclin fold, Cln2 fusion (human)
Method: yeast growth competition, sequencing
Medium: yeast
Setting: weak parent motif
Baseline: not given
Direction: higher = stronger binding
Starting sequence: RB1 docking peptide (human); PKPLKKLRFDIEG; partner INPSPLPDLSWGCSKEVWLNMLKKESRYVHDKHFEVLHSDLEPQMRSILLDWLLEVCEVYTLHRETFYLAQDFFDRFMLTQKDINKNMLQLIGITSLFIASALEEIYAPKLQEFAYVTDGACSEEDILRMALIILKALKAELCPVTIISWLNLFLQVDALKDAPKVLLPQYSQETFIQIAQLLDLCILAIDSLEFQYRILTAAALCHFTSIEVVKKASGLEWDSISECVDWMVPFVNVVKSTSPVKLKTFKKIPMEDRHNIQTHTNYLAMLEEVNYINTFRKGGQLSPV
`VKPLKKLRFDIEG [P1V]` — result for “normalised enrichment score”: 0.462.
For `PKPLKKLRFDPEG [I11P]`, “normalised enrichment score” read 0.328.
`PKPLKKLRPDIEG [F9P]`: “normalised enrichment score” -0.129.
For `PKPLKKLRFRIEG [D10R]`, “normalised enrichment score” read 2.13.
For `PKPLKKLREDIEG [F9E]`, “normalised enrichment score” read -0.926.
`PKPTKKLRFDIEG [L4T]` — result for “normalised enrichment score”: 0.327.
`PLPLKKLRFDIEG [K2L]` — result for “normalised enrichment score”: 0.552.
`PKPLKVLRFDIEG [K6V]`: “normalised enrichment score” 0.674.

Sample 2
Target: OGT, full length, His-tagged (human)
Method: phage display, sequencing
Medium: in vitro
Concentration: 1 µg OGT
Setting: single substitutions, 15-mer displayed peptide, unchanged parent 5.27
Baseline: input library
Direction: higher = stronger binding
Starting sequence: peptide; GDFPVMFMPKYSIIY
With `P4D` the fold enrichment was 9.79 fold.
The fold enrichment of `G1S` is reported as 6.24 fold.
`M6A` gave a fold enrichment of 1.06 fold.
With `V5A` the fold enrichment was 5.57 fold.
For `F3W`, the fold enrichment was 6.71 fold.
With `S12E` the fold enrichment was 5.04 fold.
With `I14A` the fold enrichment was 0.668 fold.
`V5T` has a fold enrichment of 8.13 fold.

Mixed results
B1: ARF1 538-665 (Arabidopsis thaliana, UniProt Q8L7G0); chain SRQIRSCTKVHMQGSAVGRAIDLTRSECYEDLFKKLEEMFDIKGELLESTKKWQVVYTDDEDDMMMVGDDPWNEFCGMVRKIFIYTPEEVKKLSPKNKLAVNARMQLKADAEENGNTEGRSSSMAGSR
For `CN(C)CCOc1ccc(/C(=C(/CCCl)c2ccccc2)c2ccccc2)cc1`, the infection rate was 2.88% (Plasmodium berghei; inhibitor; Huh-7, GFP-expressing sporozoites, liver stage; 10 µM, 24 h; baseline: untreated control).
For `MYH9 (Homo sapiens, UniProt P35579)`, cross-linked residues read “K1459 to K81” (MYL6 (Homo sapiens, UniProt P60660); cross-linking MS; cell fractions; added: DSSO).
`PhoQ, residues 284 288 289 292 302 303 ALASRC` gave a fold induction of 2.26 (PhoP, residues 12 14 15 18 19 STWGI (Escherichia coli, UniProt P23836); Sort-seq, item: YFP reporter; E. coli; PhoQ-PhoP variant library, added: 10 µM Mg2+; baseline: high Mg2+ state, higher = stronger signaling).
With `B1 (ARF1 538-665)` the positive tests was 0 (ARF19 948-1086 (Arabidopsis thaliana, UniProt Q8RYC8); two-hybrid; baseline: out of 3 tests, higher = firmer interaction).

Excerpt of the above (sample 1):
`VKPLKKLRFDIEG [P1V]` — result for “normalised enrichment score”: 0.462.
